Published values gathered from unrelated publications.
A part holds a random share of what one study measured. Several values in a cell are separate wells, animals, samples, runs or records.
Chain of UniProt Q9UBS0 (whole entry, looked up): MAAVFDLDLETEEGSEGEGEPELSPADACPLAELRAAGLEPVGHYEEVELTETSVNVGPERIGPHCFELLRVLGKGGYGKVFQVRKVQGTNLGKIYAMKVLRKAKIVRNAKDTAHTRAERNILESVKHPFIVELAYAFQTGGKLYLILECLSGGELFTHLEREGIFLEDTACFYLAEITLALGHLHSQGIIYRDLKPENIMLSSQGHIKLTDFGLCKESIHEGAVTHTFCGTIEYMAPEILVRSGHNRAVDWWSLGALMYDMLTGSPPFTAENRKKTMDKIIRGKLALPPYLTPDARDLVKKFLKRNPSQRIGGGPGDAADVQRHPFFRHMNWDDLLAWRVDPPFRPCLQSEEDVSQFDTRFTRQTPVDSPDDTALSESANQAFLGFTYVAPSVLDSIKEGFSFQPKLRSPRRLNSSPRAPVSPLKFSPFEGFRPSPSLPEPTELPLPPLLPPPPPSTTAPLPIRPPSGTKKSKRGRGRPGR
Chain of UniProt P05771 (whole entry, looked up): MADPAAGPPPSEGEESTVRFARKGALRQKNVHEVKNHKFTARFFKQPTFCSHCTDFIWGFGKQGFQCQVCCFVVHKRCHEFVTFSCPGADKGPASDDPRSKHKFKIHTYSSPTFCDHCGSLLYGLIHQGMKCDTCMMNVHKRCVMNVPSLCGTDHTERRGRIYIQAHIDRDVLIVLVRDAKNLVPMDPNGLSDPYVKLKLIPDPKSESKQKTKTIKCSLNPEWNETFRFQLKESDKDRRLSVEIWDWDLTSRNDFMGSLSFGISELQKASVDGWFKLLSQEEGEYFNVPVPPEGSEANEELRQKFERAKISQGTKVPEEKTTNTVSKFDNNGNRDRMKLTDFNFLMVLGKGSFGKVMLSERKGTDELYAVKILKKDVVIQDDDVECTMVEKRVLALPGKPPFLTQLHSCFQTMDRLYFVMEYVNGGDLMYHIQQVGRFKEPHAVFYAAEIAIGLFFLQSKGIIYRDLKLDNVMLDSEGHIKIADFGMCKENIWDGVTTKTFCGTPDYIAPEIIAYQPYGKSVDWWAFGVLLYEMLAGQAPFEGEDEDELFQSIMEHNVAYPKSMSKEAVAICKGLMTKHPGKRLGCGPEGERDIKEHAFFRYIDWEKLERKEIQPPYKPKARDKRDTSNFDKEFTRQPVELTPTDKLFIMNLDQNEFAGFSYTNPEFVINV
Chain of UniProt Q96S44 (whole entry, looked up): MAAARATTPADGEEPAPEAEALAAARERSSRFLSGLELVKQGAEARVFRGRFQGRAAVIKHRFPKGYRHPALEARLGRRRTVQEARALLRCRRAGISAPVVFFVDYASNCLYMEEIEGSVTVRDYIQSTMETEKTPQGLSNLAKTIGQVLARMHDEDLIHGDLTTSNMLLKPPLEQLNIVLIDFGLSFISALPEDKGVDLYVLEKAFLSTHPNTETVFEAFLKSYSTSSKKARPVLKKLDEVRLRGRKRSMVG

Set 1
Target: DNA polymerase theta, helicase domain (POLQ, Homo sapiens, UniProt O75417)
Chain of UniProt O75417 (whole entry, looked up): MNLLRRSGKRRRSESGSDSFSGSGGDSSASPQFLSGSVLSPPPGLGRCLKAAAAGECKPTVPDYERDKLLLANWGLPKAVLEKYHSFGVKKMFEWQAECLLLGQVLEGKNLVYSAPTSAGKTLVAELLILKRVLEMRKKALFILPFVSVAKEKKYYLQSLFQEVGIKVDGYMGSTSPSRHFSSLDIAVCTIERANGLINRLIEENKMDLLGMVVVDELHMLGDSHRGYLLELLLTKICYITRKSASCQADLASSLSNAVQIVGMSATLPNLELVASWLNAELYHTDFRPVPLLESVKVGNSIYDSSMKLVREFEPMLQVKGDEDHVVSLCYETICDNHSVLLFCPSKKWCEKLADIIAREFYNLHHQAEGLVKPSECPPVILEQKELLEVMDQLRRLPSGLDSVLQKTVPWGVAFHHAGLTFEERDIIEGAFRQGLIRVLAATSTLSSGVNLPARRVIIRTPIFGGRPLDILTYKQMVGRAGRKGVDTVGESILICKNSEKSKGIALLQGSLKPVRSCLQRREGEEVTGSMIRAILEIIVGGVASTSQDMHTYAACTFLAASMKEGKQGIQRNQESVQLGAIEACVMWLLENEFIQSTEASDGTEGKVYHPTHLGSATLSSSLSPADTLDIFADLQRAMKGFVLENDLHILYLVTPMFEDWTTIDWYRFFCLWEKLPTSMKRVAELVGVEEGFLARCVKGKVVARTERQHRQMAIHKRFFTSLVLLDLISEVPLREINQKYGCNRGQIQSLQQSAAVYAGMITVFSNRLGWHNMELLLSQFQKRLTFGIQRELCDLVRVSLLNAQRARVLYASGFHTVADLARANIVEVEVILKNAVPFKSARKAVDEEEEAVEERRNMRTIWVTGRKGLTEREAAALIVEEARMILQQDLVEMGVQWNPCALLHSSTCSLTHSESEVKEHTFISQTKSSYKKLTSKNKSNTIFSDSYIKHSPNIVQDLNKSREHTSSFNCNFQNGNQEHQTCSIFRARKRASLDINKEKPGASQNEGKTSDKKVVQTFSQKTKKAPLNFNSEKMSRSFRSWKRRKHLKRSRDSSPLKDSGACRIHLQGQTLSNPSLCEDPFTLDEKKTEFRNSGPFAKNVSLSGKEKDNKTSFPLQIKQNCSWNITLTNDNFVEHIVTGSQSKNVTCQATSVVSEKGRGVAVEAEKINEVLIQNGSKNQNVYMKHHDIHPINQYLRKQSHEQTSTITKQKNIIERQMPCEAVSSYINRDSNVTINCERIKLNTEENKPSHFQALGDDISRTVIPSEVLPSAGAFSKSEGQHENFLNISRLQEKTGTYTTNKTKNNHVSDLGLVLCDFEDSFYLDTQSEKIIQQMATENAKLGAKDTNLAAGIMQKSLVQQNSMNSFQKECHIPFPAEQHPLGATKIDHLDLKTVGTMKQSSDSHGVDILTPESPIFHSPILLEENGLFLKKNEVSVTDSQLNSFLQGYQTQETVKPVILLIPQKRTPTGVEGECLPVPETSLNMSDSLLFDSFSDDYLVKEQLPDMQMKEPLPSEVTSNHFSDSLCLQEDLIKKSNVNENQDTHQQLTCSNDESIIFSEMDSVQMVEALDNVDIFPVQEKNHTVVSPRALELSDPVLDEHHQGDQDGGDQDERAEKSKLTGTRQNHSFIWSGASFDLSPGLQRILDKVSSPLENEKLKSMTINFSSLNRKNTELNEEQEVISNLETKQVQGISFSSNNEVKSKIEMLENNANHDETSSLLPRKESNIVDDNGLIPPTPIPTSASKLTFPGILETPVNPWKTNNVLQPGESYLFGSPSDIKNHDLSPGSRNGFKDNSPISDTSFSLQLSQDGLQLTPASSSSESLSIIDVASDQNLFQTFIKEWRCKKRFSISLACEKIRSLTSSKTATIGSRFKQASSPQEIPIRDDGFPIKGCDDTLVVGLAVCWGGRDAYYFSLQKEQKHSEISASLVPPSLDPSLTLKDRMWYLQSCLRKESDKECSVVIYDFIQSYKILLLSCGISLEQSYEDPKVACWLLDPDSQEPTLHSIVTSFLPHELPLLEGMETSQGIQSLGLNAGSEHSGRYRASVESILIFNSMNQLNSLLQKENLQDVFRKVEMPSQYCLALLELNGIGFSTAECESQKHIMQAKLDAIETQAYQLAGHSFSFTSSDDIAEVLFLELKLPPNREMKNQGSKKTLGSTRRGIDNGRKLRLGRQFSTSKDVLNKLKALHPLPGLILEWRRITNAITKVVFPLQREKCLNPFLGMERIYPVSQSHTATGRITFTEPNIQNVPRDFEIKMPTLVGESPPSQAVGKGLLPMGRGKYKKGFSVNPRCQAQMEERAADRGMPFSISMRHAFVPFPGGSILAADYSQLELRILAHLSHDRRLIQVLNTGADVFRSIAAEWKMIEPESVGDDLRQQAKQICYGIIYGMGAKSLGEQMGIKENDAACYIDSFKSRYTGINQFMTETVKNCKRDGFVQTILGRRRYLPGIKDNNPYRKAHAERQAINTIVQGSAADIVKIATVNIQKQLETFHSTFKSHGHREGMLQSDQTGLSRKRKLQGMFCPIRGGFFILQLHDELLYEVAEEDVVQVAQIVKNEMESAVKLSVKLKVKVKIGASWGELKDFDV
Action: inhibitor
Tested at: concentration not given
Notes: absolute value
With: with minus without ssDNA
Quantity: difference in remaining activity
Compound = Cc1ccc(C(=O)c2cc(O)c(O)c([N+](=O)[O-])c2)cc1; result = 8.38%
Compound = CCCCCCCCCCCCCCCC(=O)OC[C@H](O)[C@H]1OC(=O)C(O)=C1O; result = 20.1%
Compound = CC(=O)Oc1ccccc1C(=O)Nc1ncc([N+](=O)[O-])s1; result = 4.44%
Compound = CCCCCCCCCCCCc1ccc(S(=O)(=O)Nc2nncs2)cc1; result = 10.2%
Compound = N#CSc1cc(SC#N)c(N)nc1N; result = 65.9%
Compound = CCCCCCCC/C=C\CCCCCCCC(=O)O; result = 1.57%
Compound = O=C(Nc1cc2cc[nH]c2cn1)c1ccccc1; result = 3.95%
Compound = COc1cc(NC(=O)CSc2ncc(S(=O)(=O)c3ccc(Br)cc3)c(=O)[nH]2)cc(OC)c1; result = 16.7%
Compound = COC(=O)[C@]12CCC(C)(C)C[C@H]1[C@H]1C(=O)C=C3[C@@]4(C)C=C(C#N)C(=O)C(C)(C)[C@@H]4CC[C@@]3(C)[C@]1(C)CC2; result = 47.2%
Compound = COc1cccc2c1C(=O)c1c(O)c3c(c(O)c1C2=O)C[C@@](O)(C(C)=O)C[C@@H]3O[C@H]1C[C@H](N)[C@H](O)[C@H](C)O1; result = 47.7%
Compound = Cc1ccc(C(=O)Nc2ccc(S(=O)(=O)[O-])c3cc(S(=O)(=O)[O-])cc(S(=O)(=O)[O-])c23)cc1NC(=O)c1cccc(NC(=O)Nc2cccc(C(=O)Nc3cc(C(=O)Nc4ccc(S(=O)(=O)[O-])c5cc(S(=O)(=O)[O-])cc(S(=O)(=O)[O-])c45)ccc3C)c2)c1.[Na+].[Na+].[Na+].[Na+].[Na+].[Na+]; result = 11.9%
Compound = CCOc1nc2cccc(C(=O)OCc3oc(=O)oc3C)c2n1Cc1ccc(-c2ccccc2-c2noc(=O)[nH]2)cc1; result = 12.4%
Compound = CC(=O)[C@]1(O)Cc2c(O)c3c(c(O)c2[C@@H](O[C@H]2C[C@H](N)[C@H](O)[C@H](C)O2)C1)C(=O)c1ccccc1C3=O; result = 42.2% and 41%
Compound = COc1cccc2c1C(=O)c1c(O)c3c(c(O)c1C2=O)C[C@@](O)(C(=O)CO)C[C@@H]3O[C@H]1C[C@H](N)[C@@H](O)[C@H](C)O1; result = 51.3%
Compound = O=C(Nc1ccccc1C(=O)O)c1cccc(S(=O)(=O)N2CCCC2)c1; result = 1.74%

Set 2
SMILES: O=C1NC(=O)C(c2cn(-c3ccccc3)nc2-c2ccc(F)cc2)N1 (centres unmarked)
Action: inhibitor
Tested at: 5 µM
Quantity: log2 fold change
target = DYRK2 (Homo sapiens, UniProt Q92630); test system = human cells; how to read = baseline: vehicle; result = -0.407
target = kinase–CDC37 interaction; assay = kinase–CDC37 binding; test system = human cells; conditions = PRKY; how to read = baseline: vehicle; result = -0.176
target = TP53RK (Homo sapiens, UniProt Q96S44); assay = kinase activity; conditions = cell-based kinome screen; how to read = baseline: vehicle; result = -0.32
target = Platelet-derived growth factor receptor beta, with CDC37 (PDGFRB, Homo sapiens, UniProt P09619); assay = kinase–CDC37 interaction; conditions = kinome plate 3@D06; how to read = baseline: vehicle; result = 0.154
target = ITK (Homo sapiens, UniProt Q08881); assay = cell-based kinome screen; test system = human cells; how to read = baseline: untreated control; result = -0.723
target = RPS6KC1 (Homo sapiens, UniProt Q96S38); assay = kinase-CDC37 interaction; test system = human cells; how to read = baseline: vehicle; result = -0.16
target = MATK (Homo sapiens, UniProt P42679); assay = cell-based kinome screen; test system = human cells; how to read = baseline: untreated control; result = -0.031 log2
target = BRAF (Homo sapiens, UniProt P15056, G466V); assay = cell-based kinome profiling; test system = human cells; how to read = baseline: vehicle control; result = -0.063
target = PKMYT1 (Homo sapiens, UniProt Q99640); assay = kinase–CDC37 interaction; conditions = kinome plate 5@B03; how to read = baseline: vehicle; result = -0.085
target = PRKCB (Homo sapiens, UniProt P05771); assay = cell-based kinome screen; test system = human cells; how to read = baseline: untreated control; result = -0.086 log2

Set 3
SMILES: CCS(=O)(=O)c1cc2cc(C[C@](O)(CC(C)(C)c3ccc(F)cc3C(N)=O)C(F)(F)F)[nH]c2cn1
Tested at: 1 µM
Quantity: remaining binding
target = MAPK9 (Homo sapiens, UniProt P45984); assay = cell-free assay, competition with immobilised ligand; result = 100%
target = AAK1 (Homo sapiens, UniProt Q2M2I8); assay = binding; result = 100%
target = LYN (Homo sapiens, UniProt P07948); assay = cell-free assay, competition with immobilised ligand; result = 100%
target = AXL (Homo sapiens, UniProt P30530); assay = cell-free assay, competition with immobilised ligand; result = 89%
target = MAP4K4 (Homo sapiens, UniProt O95819); assay = cell-free assay, competition with immobilised ligand; result = 92%
target = BMX (Homo sapiens, UniProt P51813); assay = cell-free assay, competition with immobilised ligand; result = 74%
target = SRC (Homo sapiens, UniProt P12931); assay = cell-free assay, competition with immobilised ligand; result = 100%
target = EPHA2 (Homo sapiens, UniProt P29317); assay = cell-free assay, competition with immobilised ligand; result = 81%
target = CIT (Homo sapiens, UniProt O14578); assay = cell-free assay, competition with immobilised ligand; result = 100%
target = EPHB6 (Homo sapiens, UniProt O15197); assay = cell-free assay, competition with immobilised ligand; result = 100%
target = Tyrosine-protein kinase ABL1, phosphorylated (ABL1, Homo sapiens, UniProt P00519); assay = cell-free assay, competition with immobilised ligand; result = 100%
target = CDK9 (Homo sapiens, UniProt P50750); assay = cell-free assay, competition with immobilised ligand; result = 100%
target = CLK1 (Homo sapiens, UniProt P49759); assay = cell-free assay, competition with immobilised ligand; result = 99%
target = FLT3 (Homo sapiens, UniProt P36888, F691L/ITD); assay = cell-free assay, competition with immobilised ligand; result = 95%
target = LTK (Homo sapiens, UniProt P29376); assay = cell-free assay, competition with immobilised ligand; result = 97%
target = MAPK6 (Homo sapiens, UniProt Q16659); assay = cell-free assay, competition with immobilised ligand; result = 100%
target = Receptor-type tyrosine-protein kinase FLT3, autoinhibited (FLT3, Homo sapiens, UniProt P36888); assay = cell-free assay, competition with immobilised ligand; result = 85%

Set 4
SMILES: Cc1sc(C(=O)NC2COC2)cc1-n1cc(NC(=O)Nc2c(F)cccc2Cl)cn1
Observed: enzyme activity
Tested at: 10 µM
Quantity: remaining activity
target = MAPK1 (Homo sapiens, UniProt P28482); how to read = baseline: untreated control; result = 85.5%
target = FES (Homo sapiens, UniProt P07332); how to read = baseline: untreated control; result = 93.2%
target = ROS1 (Homo sapiens, UniProt P08922); how to read = baseline: untreated control; result = 102%
target = NUAK1 (Homo sapiens, UniProt O60285); how to read = baseline: untreated control; result = 96.1%
target = Aurora kinase B (AURKB, Homo sapiens, UniProt Q96GD4); how to read = baseline: untreated control; result = 94.1%
target = MAP3K20 (Homo sapiens, UniProt Q9NYL2); how to read = baseline: untreated control; result = 85.4%
target = RPS6KB2 (Homo sapiens, UniProt Q9UBS0); how to read = baseline: untreated control; result = 97.4%
target = PAK4 (Homo sapiens, UniProt O96013); how to read = baseline: untreated control; result = 103%
target = RIPK4 (Homo sapiens, UniProt P57078); assay = inhibitor; result = 103%
target = TGFBR1 (Homo sapiens, UniProt P36897); how to read = baseline: untreated control; result = 104%
target = SIK3 (Homo sapiens, UniProt Q9Y2K2); how to read = baseline: untreated control; result = 81.6%
